Experimental data collected from several papers.
Every numbered part comes from another study and shows a few of its results, in no order. Positions count from the first letter of the parent shown.

Sample 1
Target: Sal-like protein 4, full length isoform A (SALL4, Homo sapiens, UniProt Q9UJQ4, residues 1-1053)
UniProt Q9UJQ4, sequence (whole entry, looked up): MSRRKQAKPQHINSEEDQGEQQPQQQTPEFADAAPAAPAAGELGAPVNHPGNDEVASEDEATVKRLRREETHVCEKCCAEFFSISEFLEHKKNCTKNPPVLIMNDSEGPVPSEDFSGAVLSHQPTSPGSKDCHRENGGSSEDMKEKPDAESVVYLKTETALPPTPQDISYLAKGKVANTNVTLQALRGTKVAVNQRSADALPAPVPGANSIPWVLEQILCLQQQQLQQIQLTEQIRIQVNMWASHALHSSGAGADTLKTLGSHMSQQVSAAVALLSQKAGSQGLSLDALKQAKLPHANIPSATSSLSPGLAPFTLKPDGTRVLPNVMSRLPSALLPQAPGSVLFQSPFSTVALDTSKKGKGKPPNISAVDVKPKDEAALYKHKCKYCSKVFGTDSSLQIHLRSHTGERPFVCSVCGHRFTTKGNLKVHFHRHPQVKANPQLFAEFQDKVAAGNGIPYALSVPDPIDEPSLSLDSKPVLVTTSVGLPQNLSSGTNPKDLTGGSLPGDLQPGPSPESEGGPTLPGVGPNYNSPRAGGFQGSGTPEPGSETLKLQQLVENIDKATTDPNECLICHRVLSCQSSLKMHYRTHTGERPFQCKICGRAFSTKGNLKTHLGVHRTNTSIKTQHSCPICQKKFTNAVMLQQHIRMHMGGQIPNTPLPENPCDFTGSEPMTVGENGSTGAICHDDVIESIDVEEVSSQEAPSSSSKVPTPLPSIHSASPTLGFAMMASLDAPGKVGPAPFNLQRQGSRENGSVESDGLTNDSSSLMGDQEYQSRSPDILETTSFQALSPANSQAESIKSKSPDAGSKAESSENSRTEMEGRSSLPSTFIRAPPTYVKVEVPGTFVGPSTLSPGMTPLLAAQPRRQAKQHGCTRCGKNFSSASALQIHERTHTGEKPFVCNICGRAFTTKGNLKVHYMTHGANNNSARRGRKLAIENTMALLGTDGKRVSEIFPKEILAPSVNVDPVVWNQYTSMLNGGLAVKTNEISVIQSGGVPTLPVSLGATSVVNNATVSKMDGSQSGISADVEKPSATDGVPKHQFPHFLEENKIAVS
Technique: universal PBM
Molecule type: double-stranded DNA, one strand shown
Matrix: in vitro
Tested at: 600 nM
Notes: 8-mer, flanks averaged, mean of replicates
Direction: higher = stronger binding
Oligonucleotide	E-score
ACCCCACT	-0.158
AACCCGCT	-0.269
GTCGTACA	-0.00206
AAATCAAA	0.322
CCGGAGTC	-0.289
GCACGATA	0.0722
ACCATGTA	0.143
AATGATAC	0.28
AGTCGTTG	-0.206
CTATAAGC	0.189

Sample 2
Target: CCND1, cyclin fold, Cln2 fusion (human)
Technique: yeast growth competition, sequencing
Matrix: yeast
Notes: strong parent motif
Baseline: not given
Direction: higher = stronger binding
Parent: SCAPER docking peptide (human); SNARRSLNFGGST
Change	normalised enrichment score
SNARRKLNFGGST [S6K]	3.59
WNARRSLNFGGST [S1W]	0.928
SNGRRSLNFGGST [A3G]	-0.17
PNARRSLNFGGST [S1P]	0.411

Sample 3
Target: Interferon regulatory factor 3, full length, phosphomimetic (IRF3, Homo sapiens, UniProt Q14653, residues 1-427, S386D/S396D/S398D/S402D/T404D/S405D)
UniProt Q14653, sequence (whole entry, unmodified, looked up): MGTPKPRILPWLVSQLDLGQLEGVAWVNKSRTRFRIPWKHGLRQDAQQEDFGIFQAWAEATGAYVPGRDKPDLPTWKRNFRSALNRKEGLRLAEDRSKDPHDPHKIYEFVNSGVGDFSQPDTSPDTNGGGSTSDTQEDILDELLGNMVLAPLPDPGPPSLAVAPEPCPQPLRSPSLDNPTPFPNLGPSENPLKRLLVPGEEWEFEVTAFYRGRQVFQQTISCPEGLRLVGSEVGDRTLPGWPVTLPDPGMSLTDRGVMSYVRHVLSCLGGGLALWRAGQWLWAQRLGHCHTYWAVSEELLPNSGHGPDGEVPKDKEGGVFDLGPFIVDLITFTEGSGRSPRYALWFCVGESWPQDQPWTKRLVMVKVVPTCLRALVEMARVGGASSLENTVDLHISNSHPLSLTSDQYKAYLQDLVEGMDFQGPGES
Technique: protein-binding microarray
Molecule type: double-stranded DNA, one strand shown
Matrix: in vitro
Tested at: 2540 nM top
Notes: 60-bp whole probe
With: salmon DNA 0.4 mg/ml
Baseline: random background probes
Direction: higher = stronger binding
Shared flanks, not repeated: GCCTAGCAC … GTCTTGATTCGCTTGACGCTGCTG
Oligonucleotide	fitted relative affinity
TTTCTTTTATGCTCTTTCTACGTGCTA	3.4 z-score
TTAGGTATCGGTTACGGTTAGTGCTAG	4.02 z-score
TCAAGTCTGGGCTACAACTTGGTGCTA	-0.621 z-score
TCATCTCCCATTCTGAAACTGTGCTAG	2.52 z-score
GACGATTTCGGGTATCGAGATGTGCTA	1.87 z-score
TTAGGTTTCGACGTTCGGTTAGTGCTA	1.79 z-score

Further values, each from its own experiment
Molecule	target	test	test system	setting	scale	measurement	value
PhoQ, residues 284 288 289 292 302 303 AAQSYM	PhoP, residues 12 14 15 18 19 SMASL (Escherichia coli, UniProt P23836)	Sort-seq, measured: YFP reporter	E. coli	PhoQ-PhoP variant library, with: 10 µM Mg2+	baseline: high Mg2+ state, higher = stronger signaling	fold induction	1.16
